Measurements pooled from the literature.
A part holds a random share of what one study measured. “And” joins repeats or separate records; there may be more than shown. pEC50: −log10 of the molar value.
Sequence of UniProt P41143 (whole entry, looked up): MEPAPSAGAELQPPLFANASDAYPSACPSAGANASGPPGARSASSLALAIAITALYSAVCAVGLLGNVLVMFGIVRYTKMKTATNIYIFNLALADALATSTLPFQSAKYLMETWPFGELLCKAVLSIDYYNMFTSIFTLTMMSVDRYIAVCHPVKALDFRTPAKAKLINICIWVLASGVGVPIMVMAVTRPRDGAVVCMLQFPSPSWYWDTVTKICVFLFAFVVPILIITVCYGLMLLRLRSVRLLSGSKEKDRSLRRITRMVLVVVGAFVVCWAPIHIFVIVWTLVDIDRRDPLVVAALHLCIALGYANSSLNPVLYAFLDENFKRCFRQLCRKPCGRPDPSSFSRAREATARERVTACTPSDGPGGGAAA
Sequence of UniProt P11309 (whole entry, looked up): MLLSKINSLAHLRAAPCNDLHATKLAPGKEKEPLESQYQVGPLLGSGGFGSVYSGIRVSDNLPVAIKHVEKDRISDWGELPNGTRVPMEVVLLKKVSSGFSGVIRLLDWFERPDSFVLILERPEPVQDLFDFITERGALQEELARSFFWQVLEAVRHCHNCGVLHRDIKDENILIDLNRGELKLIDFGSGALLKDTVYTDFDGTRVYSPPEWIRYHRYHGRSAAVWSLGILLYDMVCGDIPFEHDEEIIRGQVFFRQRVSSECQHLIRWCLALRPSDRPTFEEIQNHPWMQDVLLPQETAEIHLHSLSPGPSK
Sequence of UniProt P07947 (whole entry, looked up): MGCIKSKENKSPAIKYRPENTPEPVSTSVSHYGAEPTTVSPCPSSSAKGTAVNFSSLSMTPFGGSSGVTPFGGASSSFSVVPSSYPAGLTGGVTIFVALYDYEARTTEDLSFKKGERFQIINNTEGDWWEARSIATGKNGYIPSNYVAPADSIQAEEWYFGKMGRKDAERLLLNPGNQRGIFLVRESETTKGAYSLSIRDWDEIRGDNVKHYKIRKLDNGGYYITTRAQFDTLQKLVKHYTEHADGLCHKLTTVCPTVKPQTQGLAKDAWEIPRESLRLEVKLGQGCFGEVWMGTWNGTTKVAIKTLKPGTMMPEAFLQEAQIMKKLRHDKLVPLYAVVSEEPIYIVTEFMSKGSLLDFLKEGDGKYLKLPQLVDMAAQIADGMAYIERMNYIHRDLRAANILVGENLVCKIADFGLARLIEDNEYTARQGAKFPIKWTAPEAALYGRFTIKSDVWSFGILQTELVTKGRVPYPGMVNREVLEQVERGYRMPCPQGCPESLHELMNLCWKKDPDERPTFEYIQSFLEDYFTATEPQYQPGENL
Sequence of UniProt O96013 (whole entry, looked up): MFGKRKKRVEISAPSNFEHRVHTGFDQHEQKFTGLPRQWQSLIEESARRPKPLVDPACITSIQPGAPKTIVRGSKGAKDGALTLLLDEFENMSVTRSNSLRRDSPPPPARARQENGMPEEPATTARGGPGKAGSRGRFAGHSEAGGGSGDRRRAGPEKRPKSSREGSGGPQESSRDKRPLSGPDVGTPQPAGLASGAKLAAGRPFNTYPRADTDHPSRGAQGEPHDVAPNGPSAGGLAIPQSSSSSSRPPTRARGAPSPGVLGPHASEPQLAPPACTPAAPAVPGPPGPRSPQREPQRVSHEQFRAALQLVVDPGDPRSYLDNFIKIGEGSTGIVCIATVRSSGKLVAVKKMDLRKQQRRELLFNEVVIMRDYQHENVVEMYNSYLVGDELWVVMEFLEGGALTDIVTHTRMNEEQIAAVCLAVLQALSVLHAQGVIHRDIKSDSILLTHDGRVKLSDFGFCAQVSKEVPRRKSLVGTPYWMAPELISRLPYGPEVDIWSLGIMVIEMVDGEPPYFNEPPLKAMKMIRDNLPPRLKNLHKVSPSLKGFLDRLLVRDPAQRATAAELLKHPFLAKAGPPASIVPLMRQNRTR
Sequence of UniProt Q00535 (whole entry, looked up): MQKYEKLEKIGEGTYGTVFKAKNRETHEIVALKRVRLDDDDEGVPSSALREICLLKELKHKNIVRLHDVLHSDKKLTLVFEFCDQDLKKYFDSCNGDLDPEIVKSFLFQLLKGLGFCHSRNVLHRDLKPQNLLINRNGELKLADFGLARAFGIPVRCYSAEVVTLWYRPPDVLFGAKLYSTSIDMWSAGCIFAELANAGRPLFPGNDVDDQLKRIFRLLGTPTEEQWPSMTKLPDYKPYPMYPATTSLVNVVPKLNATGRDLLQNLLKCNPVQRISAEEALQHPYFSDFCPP
Sequence of UniProt P54753 (whole entry, looked up): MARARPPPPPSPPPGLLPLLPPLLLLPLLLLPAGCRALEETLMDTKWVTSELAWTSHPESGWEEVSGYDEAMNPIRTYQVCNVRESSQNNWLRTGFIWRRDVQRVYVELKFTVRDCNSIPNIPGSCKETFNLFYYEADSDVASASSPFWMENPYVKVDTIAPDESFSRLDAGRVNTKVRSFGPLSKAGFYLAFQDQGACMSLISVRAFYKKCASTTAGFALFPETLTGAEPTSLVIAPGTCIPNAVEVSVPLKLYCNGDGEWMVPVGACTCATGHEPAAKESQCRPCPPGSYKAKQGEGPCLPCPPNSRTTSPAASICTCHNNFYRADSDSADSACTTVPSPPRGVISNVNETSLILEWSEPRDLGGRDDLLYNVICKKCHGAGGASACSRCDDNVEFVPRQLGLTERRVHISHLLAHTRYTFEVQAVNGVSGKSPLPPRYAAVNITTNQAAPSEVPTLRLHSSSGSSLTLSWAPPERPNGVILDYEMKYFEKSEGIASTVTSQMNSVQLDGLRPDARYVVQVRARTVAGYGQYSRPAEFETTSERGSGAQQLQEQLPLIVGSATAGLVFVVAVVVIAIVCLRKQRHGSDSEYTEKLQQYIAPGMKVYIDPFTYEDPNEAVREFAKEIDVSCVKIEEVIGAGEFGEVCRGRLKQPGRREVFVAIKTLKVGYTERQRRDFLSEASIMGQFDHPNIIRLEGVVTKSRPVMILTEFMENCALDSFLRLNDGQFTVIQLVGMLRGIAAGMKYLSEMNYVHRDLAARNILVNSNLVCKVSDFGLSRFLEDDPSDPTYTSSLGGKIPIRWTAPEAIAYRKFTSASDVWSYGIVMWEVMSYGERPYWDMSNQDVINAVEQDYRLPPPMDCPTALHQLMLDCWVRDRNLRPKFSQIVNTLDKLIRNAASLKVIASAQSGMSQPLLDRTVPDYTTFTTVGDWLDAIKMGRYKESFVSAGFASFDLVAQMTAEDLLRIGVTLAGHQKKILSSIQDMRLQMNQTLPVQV

Series 1
SMILES: O=C1CCC(N2Cc3c(ccc4c3OCC43CCN(Cc4ccccc4)CC3)C2=O)C(=O)N1 (stereo not shown)
Sample: plasma
species	route	dose	MRT(0-t)
male Sprague-Dawley rat	intravenous	1 mg/kg	2.1 h
ICR mouse, male	oral	3.0 mg/kg	1.87 h and 4.16 h and 3.04 h
Sprague Dawley rat, male	oral	3.0 mg/kg	3.96 h
male Sprague-Dawley rat	oral	3 mg/kg	3.73 h
Sprague Dawley rat, male	intravenous	1.0 mg/kg	2.11 h
male CD-1 mouse	oral	3 mg/kg	3.02 h
male CD-1 mouse	intravenous	1 mg/kg	1.53 h
rat Sprague Dawley male	oral	3.0 mg/kg	3.41 h and 3.81 h

Series 2
Structure (SMILES): CCN(CC)C(=O)c1ccc(C2=CC3(CCNCC3)Oc3cccc(O)c32)cc1
Cell line: human cells
target	pEC50
Delta-type opioid receptor, with GoA (OPRD1, Homo sapiens, UniProt P41143)	7.78
Delta-type opioid receptor, with Gi1 (OPRD1, Homo sapiens, UniProt P41143)	7.32
Delta-type opioid receptor, with β-arrestin2 (OPRD1, Homo sapiens, UniProt P41143)	6.19
Delta-type opioid receptor, with Gz (OPRD1, Homo sapiens, UniProt P41143)	8.14

Series 3
Cell line: HEK-293T
Observed: pseudovirus infection
Technique: FDA-approved drug library counter-screen
Organism: VSV pseudotyped with VSV-G
Tested at: 10 µM
Time: 16 h
Reference: vehicle-treated
Compound	GFP-positive cells
Cc1ccc(C(=O)c2ccc(CC(=O)O)n2C)cc1	105%
CCOc1ccccc1OCCN[C@H](C)Cc1ccc(OC)c(S(N)(=O)=O)c1	94.8%
CCCSc1nc(N[C@@H]2C[C@H]2c2ccc(F)c(F)c2)c2nnn([C@@H]3C[C@H](OCCO)[C@@H](O)[C@H]3O)c2n1	92.8%
C=C1CC[C@@]2(O)[C@H]3Cc4ccc(O)c5c4[C@@]2(CCN3CC2CC2)[C@H]1O5	94.8%
O=C(O)c1cc(-c2ccc(F)cc2F)ccc1O	103%
NC[C@H]1O[C@H](O[C@H]2[C@H](O)[C@@H](O[C@H]3O[C@H](CO)[C@@H](O)[C@H](N)[C@H]3O)[C@H](N)C[C@@H]2N)[C@H](O)[C@@H](O)[C@@H]1O	77.4%

Series 4
SMILES: CCn1cnc2c(Nc3cccc(Cl)c3)nc(N[C@H]3CCCC[C@H]3N)nc21
Observed: enzyme activity
Mode: inhibitor
Tested at: 0.5 µM
Reference: control
target	remaining activity [%]
Receptor tyrosine-protein kinase erbB-2 (ERBB2, Homo sapiens, UniProt P04626)	95.6
Tyrosine-protein kinase Yes (YES1, Homo sapiens, UniProt P07947)	35.4
Cyclin-dependent kinase 5, with p35 (CDK5, Homo sapiens, UniProt Q00535)	13.2
Serine/threonine-protein kinase PAK 4 (PAK4, Homo sapiens, UniProt O96013)	84.5
Serine/threonine-protein kinase pim-1 (PIM1, Homo sapiens, UniProt P11309)	83.8
Serine/threonine-protein kinase PAK 5 (PAK5, Homo sapiens, UniProt Q9P286)	64.7
Ephrin type-B receptor 3 (EPHB3, Homo sapiens, UniProt P54753)	92.7

Some of these lines once more (series 2):
target	pEC50
Delta-type opioid receptor, with β-arrestin2 (OPRD1, Homo sapiens, UniProt P41143)	6.19
Delta-type opioid receptor, with Gz (OPRD1, Homo sapiens, UniProt P41143)	8.14
Delta-type opioid receptor, with GoA (OPRD1, Homo sapiens, UniProt P41143)	7.78
Delta-type opioid receptor, with Gi1 (OPRD1, Homo sapiens, UniProt P41143)	7.32
